Assay results pooled from the literature.
Parts stem from different laboratories: compare values within a part only.

Block 1 — method: RNA Bind-n-Seq; molecule type: RNA; matrix: in vitro; concentration: 200 nM; setting: whole 134-nt RNA, ends assumed; with: 150 mM KCl; reference: input library; direction: higher = stronger binding
Target: Ras GTPase-activating protein-binding protein 1, full length (G3BP1, Homo sapiens, UniProt Q13283)
UniProt Q13283, sequence (whole entry, looked up): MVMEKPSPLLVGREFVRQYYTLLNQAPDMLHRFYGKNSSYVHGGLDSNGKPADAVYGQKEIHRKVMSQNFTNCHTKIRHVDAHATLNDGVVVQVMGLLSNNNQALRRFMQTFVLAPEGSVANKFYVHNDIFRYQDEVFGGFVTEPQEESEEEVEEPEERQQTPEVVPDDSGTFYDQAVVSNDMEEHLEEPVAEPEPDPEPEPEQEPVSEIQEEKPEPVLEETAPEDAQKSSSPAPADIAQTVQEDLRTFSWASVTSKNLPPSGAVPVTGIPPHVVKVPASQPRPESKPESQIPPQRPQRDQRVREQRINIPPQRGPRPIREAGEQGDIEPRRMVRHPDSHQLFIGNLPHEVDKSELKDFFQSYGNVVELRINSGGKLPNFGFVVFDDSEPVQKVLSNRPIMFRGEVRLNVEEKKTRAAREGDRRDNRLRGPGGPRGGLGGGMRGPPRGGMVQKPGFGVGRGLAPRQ
All sequences stand within: GGGAGUUCUACAGUCCGACGAUC … UGGAAUUCUCGGGUGUCAAGG
| Oligonucleotide | log2 enrichment |
| --- | --- |
| CCUCAAGUCCUGUGCUACACAUCGUAUGUACCGAAUCGGCGGGCGGGCGGGGAAAGUAUUAUGUUACGCCGUUCGGAUCUGCACUUCCAG | 0.871 |
| ACCAUGCAGGUGGGCAUCUUUGGGAAGUGGGGCAAGGGGGGGAUAGGGAGGGGGGUAACACUUUGGGAACAGAAAGUCCCAGGUCGUUUC | 0.929 |
| CCUCAAGUCCUGUGCUACACAUCGUAUGUACCGAAUCGGCGGGGCGGCGGGGAAAGUAUUAUGUUACGCCGUUCGGAUCUGCACUUCCAG | 0.267 |
| UCCUGUGCUACACAUCGUAUGUACCGAAUCGGAAAAAAGGGAAAAAAGGAAAAAAGGGGAAAGUAUUAUGUUACGCCGUUCGGAUCUGCA | -1.02 |
| CACAGACAACACGCACCCACACAGACACAGAGGGAAGGGGUUGGGAUAGGGACAGGGUGCACAGCAGGGCGGGGUAGGACCCCAGCCCCU | 1.76 |
| CAAGUCCUGUGCUACACAUCGUAUGUACCGAAUCGGGAAAGGGAAAGGGUUUGGGAAAGUAUUAUGUUACGCCGUUCGGAUCUGCACUUC | 0.474 |
| UAACUUUAGAGGAGGAUCUGAUGGAUAUGGCAGUGGACGUGGAUUUGGGGAUGGCUAUAAUGGGUACGGAGGAGGACCUGGAGGUGGCAA | 0.213 |
| CACAGACAACACGCACCCACACAGACACAGAGGGAAGGGGUUGGGAUGGGGACAAAGUGCACAGCAGGGCGGGGUAGGACCCCAGCCCCU | 1.78 |
| UCAAGUCCUGUGCUACACAUCGUAUGUACCGAAUCGGAAAAAGGUUUGGAAAGGAAAGUAUUAUGUUACGCCGUUCGGAUCUGCACUUCC | -1.27 |

Block 2 — method: universal PBM; molecule type: double-stranded DNA, one strand shown; matrix: in vitro; concentration: not given; direction: higher = stronger binding
Target: Sal-like protein 4, full length isoform B (SALL4, Homo sapiens, UniProt Q9UJQ4-2, residues 1-616)
Setting: 8-mer, flanks averaged, mean of replicates
Target sequence (chain): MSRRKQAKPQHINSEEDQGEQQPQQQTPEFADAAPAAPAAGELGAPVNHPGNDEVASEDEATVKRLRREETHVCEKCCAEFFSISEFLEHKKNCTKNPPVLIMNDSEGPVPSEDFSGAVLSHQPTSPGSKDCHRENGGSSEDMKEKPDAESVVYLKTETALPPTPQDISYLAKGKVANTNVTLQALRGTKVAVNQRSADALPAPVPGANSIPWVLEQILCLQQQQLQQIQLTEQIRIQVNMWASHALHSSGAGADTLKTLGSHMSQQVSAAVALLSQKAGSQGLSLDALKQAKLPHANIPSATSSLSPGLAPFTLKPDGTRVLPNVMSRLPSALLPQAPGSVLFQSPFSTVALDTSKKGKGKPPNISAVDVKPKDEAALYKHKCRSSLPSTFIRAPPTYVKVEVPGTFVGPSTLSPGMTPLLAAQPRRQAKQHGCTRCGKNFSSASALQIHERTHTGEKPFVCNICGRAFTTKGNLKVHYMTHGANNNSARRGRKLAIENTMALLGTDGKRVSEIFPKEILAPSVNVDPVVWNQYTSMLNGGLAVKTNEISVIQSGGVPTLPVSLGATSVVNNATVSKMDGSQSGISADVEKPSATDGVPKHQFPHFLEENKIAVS
| Oligonucleotide | E-score |
| --- | --- |
| GTCGTTTA | 0.0892 |
| AGCACCAC | -0.257 |
| GGTGCTGA | -0.358 |
| GGTTGGAC | -0.11 |
| CGCGCAAC | -0.17 |
| AATCAGAC | 0.0947 |
| ATACTGCC | -0.0965 |
| GCTACTCA | 0.00181 |
| CTGCATAC | 0.0355 |
| CGCTCTCC | -0.259 |
| AGTTTTTG | 0.264 |
| CGCGCGAG | -0.245 |
| CCTTATTA | 0.342 |
| CTCTATAC | 0.0573 |
| AATAATGT | 0.357 |
| TGTGAGAA | 0.12 |
| GGTGTCTA | -0.0415 |
| AACTTTAC | 0.073 |
| GGTTAAAC | 0.102 |
| AAGCCGCA | -0.0467 |
| AGTAACGC | -0.0571 |
| AGGTGATG | -0.176 |
| CGTCATAC | 0.158 |
| ACTTAACG | -0.125 |
| ATACTCAC | 0.17 |

Block 3 — method: RNA Bind-n-Seq; molecule type: RNA; matrix: in vitro; concentration: 365 nM; reference: no-protein control; direction: higher = stronger binding
Target: RNA binding protein fox-1 homolog 2, RRM domain, GST-SBP tag (RBFOX2, Homo sapiens, UniProt O43251-10, residues 100-194)
Setting: natural RNA segment, single round, ends assumed
All sequences stand within: GGGAGUUCUACAGUCCGACGAUC … UGGAAUUCUCGGGUGCCAA
Construct (chain): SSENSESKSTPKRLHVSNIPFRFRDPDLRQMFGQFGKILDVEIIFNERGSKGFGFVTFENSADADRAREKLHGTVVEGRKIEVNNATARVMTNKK
| Oligonucleotide | RBNS enrichment (R) |
| --- | --- |
| AGUGGCUCUUACAAAACUCUGUUCCCACUCCCUCUCUUGCCGACAAGGGCAACUCACGGGUGCAUGAAACCACUGGAACAUGGCCGUCGCUGUGGGGGUUUUUUUCUCUG | 1.88 |
| AACUUCUCUCAGCAGAGAGUACCCAUUCUUCGAGUUCAAAGCACAAUUUUAAACAUGUAAAAUGGAUAUAUAAUUUGCCAAAGGUAAUUAAUUUAUUCUUUUUUUCUUAA | 0.409 |
| UCUGCUCAGCCUUGCUGGAGAUUCUGGGUGGCAGGGAUGUCCUGAUGGGACCCUCUGGAGUCCAGCCAUCCCAGGCUGUCUGCUUUCCAGGGGUUGUAUCUUCCUUCUUA | 1.28 |
| AAUUUUGGAGGGCAAGACAGGGAGGAGGCCGCUUCAUCCCAGACUCUCUUCUAGGGCUUCCCACCAUCAGCCCCUCCCACUUGAGACUGGUCUUUGGGAGGCAAUAGGCC | 0.462 |
| CCUGGACAGGACAUUUCACCUGCUAGUCUGUGCUAUUCUGGUAAAAUGAAGGGAUGCAUUGGACUAGACAAAAUGAUCUAAAAGUUUCCUUAUUAUAAAUUUUAGGAUUU | 0.509 |
| UGCAGUAUCUCCUAACUUCAGUGCACUCUGCUAGAACAGUACAUUUGCUGUAUUUACUGAAAUCUCUGGCACAGAAGGAAGUGUGUUUGCCUCACACACCAUUUGUCCCA | 0.374 |
| CUGGCUUGAGGAUUAGCUAAAGGUCUGUGUUUUCACAGCAGGAGUUAAUGUGCAGAGUUAACUGAACAGUGAUAUUCCAGUCCUCUUUUUUUAAGCUUCGGUGGCAGCUC | 0.36 |
| CAGCAGCCAGGAGGACCUGACCCAGCAGUUCUUUACUGGCCCCUUUGUAGGGCCUUGCUGCCAGGGGGCAGGGAUGCUUUCCAGCCUGCAGCAACAGAACACUUGACCUU | 0.227 |

Block 4 — method: protein binding microarray; molecule type: double-stranded DNA, one strand shown; matrix: in vitro; concentration: not given; reference: not given; direction: higher = stronger binding
Target: Histone acetyltransferase KAT6A, both winged helices, GST fusion (KAT6A, Homo sapiens, UniProt Q92794, residues 1-181)
Setting: 8-mer, flanks averaged, mean of 2 arrays, mostly near background
Construct (chain): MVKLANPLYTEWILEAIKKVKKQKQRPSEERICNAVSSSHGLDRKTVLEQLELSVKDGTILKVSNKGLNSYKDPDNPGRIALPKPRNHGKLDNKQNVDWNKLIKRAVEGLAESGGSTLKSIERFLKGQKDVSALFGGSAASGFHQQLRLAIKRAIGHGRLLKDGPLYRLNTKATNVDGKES
| Oligonucleotide | E-score |
| --- | --- |
| CTGTTTGC | 0.0172 |
| AGTTCAAG | -0.0689 |
| TATGCTGA | -0.066 |
| GCTACAGA | -0.195 |
| GTCCCCCA | -0.237 |
| CCTTTTTC | -0.276 |
| GAAACGCA | 0.143 |
| ACCTGCGC | 0.14 |
| AGAACGCT | -0.00937 |
| TAACGTAA | -0.0867 |
| CTAATGTC | -0.0411 |
| GACCCCTA | -0.213 |
| AGAACAGA | -0.174 |
| CTGACTTA | -0.179 |
| ACGGAGGG | 0.0247 |
| CGAACGCG | 0.316 |
| CGACCGGC | 0.21 |
| AGAGATAC | 0.0117 |
| ACTCATTG | -0.166 |
| TATCATGA | -0.0595 |
| CCCTCAAC | -0.113 |
| AACGCAGT | 0.129 |
| TATCGTCA | 0.0519 |
| CAAGTACG | 0.00301 |
| CGTAGTTC | 0.0235 |

Repeated from above (block 2):
| Oligonucleotide | E-score |
| --- | --- |
| GCTACTCA | 0.00181 |
| CTGCATAC | 0.0355 |
| CGCTCTCC | -0.259 |
| AGTTTTTG | 0.264 |
| CGCGCGAG | -0.245 |
| CCTTATTA | 0.342 |
| CTCTATAC | 0.0573 |
| AATAATGT | 0.357 |
| TGTGAGAA | 0.12 |
